Measured values pooled from the literature.
Values joined by “and” are separate records of one study, mostly repeats; a detail may differ.
Cell line: LOX IMVI

SMILES | read-out | method | tested at | time | notes | endpoint | value
O=C(Nc1nnc2n3c(=S)[nH][nH]c3nc(-c3ccc(Cl)cc3)c1-2)c1ccccc1 | – | NCI60 SRB | 10 µM | – | – | growth percent | 111%
CCCCN1CCN(c2ccc3[nH]c(-c4ccc5[nH]c(-c6cc(OC)c(OC)c(OC)c6)nc5c4)nc3c2)CC1 | cell growth | NCI-60 SRB | 10 µM | 48 h | – | growth percent | 40.7%
O=C(Nc1nnc2n3c(Cc4ccccc4)n[nH]c3nc(-c3ccc(Cl)cc3)c1-2)c1ccccc1 | – | NCI60 SRB | 10 µM | – | – | growth percent | 120%
Cn1cncc1C1=CN(c2ncnc3[nH]cnc23)CCS1 | – | – | – | – | melanoma cell line | GI50 | 24.5 µM
O=c1ccn(Cc2cn(-c3cc4ccccc4oc3=O)nn2)c(=O)[nH]1 | – | NCI60 single dose | 10 µM | – | – | growth | 97.6%
COc1cnc2cccc(N3CCc4c(cc(Cn5ccnc5C)cc4-c4cn(C)nc4C(F)(F)F)C3=O)c2c1 | cell growth | – | – | 120 h | – | EC50 | 4.32 µM
C#C[C@@]1(O)[C@@H](CO)O[C@@H](n2cc(Br)c3c(N)ncnc32)[C@@H]1O | cell growth | SRB | – | – | – | TGI | 0.351 µM and 0.176 µM
CCCCN1CCN(c2ccc3[nH]c(-c4ccc5[nH]c(-c6ccc(OCC)c(OCC)c6)nc5c4)nc3c2)CC1 | cell growth | NCI-60 SRB | 10 µM | 48 h | – | growth percent | -82%
O=C(Nc1nnc2n3c(nc(-c4ccc(Cl)cc4)c1-2)SCC3=O)c1ccccc1 | – | NCI60 SRB | 10 µM | – | – | growth percent | 109%
COc1ccc(OC)c(-c2nc3ccc(-c4nc5ccc(N6CCN(C)CC6)cc5[nH]4)cc3[nH]2)c1 | cell growth | NCI-60 SRB | 10 µM | 48 h | – | growth percent | 98%
CSc1nc(-c2ccc(Cl)cc2)c2c(NC(=O)c3ccccc3)nnc-2[nH]1 | – | NCI60 SRB | 10 µM | – | – | growth percent | 105%
O=C1NC(c2ccccc2)(c2ccccc2)C(=O)N1Cc1cn(-c2cc3ccccc3oc2=O)nn1 | – | NCI60 single dose | 10 µM | – | – | growth | 92.2%
C#C[C@@]1(O)[C@@H](CO)O[C@@H](n2cc(F)c3c(N)ncnc32)[C@@H]1O | cell growth | SRB | – | – | – | TGI | 1.11 µM
CCCCN1CCN(c2ccc3[nH]c(-c4ccc5[nH]c(-c6ccc(OCC)cc6)nc5c4)nc3c2)CC1 | cell growth | NCI-60 SRB | 10 µM | 48 h | – | growth percent | -81%
Cc1n[nH]c2nc(-c3ccc(Cl)cc3)c3c(NC(=O)c4ccccc4)nnc-3n12 | – | NCI60 SRB | 10 µM | – | – | growth percent | 118%
CCCN1CCN(c2ccc3[nH]c(-c4ccc5[nH]c(-c6cc(OC)c(OC)c(OC)c6)nc5c4)nc3c2)CC1 | cell growth | NCI-60 SRB | 10 µM | 48 h | – | growth percent | 67.3%
Cc1cc(C)n(-c2nc(-c3ccc(Cl)cc3)c3c(NC(=O)c4ccccc4)nnc-3[nH]2)n1 | – | NCI60 SRB | 10 µM | – | – | growth percent | 102%
Cc1cc(=O)[nH]c(=O)n1Cc1cn(-c2c3ccccc3nc3ccccc23)nn1 | – | NCI60 single dose | 10 µM | – | – | growth | 15.2%
CCCN1CCN(c2ccc3nc(-c4ccc5nc(-c6cc(OC)ccc6OC)[nH]c5c4)[nH]c3c2)CC1 | cell growth | NCI-60 SRB | 10 µM | 48 h | – | growth percent | -83.3%
O=C1NC(c2ccccc2)(c2ccccc2)C(=O)N1Cc1cn(-c2c3ccccc3nc3ccccc23)nn1 | – | NCI60 single dose | 10 µM | – | – | growth | 78.2%
Cc1cc(C)n(C(=S)[S][Au][PH](CCCCCC[PH]([Au][S]C(=S)n2nc(C)cc2C)(c2ccccc2)c2ccccc2)(c2ccccc2)c2ccccc2)n1 | cell growth | NCI-60 screen | – | – | melanoma | log10 TGI | > -4

A few entries again:
SMILES | read-out | method | tested at | time | notes | endpoint | value
CCCCN1CCN(c2ccc3[nH]c(-c4ccc5[nH]c(-c6ccc(OCC)cc6)nc5c4)nc3c2)CC1 | cell growth | NCI-60 SRB | 10 µM | 48 h | – | growth percent | -81%
Cc1n[nH]c2nc(-c3ccc(Cl)cc3)c3c(NC(=O)c4ccccc4)nnc-3n12 | – | NCI60 SRB | 10 µM | – | – | growth percent | 118%
CCCN1CCN(c2ccc3[nH]c(-c4ccc5[nH]c(-c6cc(OC)c(OC)c(OC)c6)nc5c4)nc3c2)CC1 | cell growth | NCI-60 SRB | 10 µM | 48 h | – | growth percent | 67.3%
